# Measured values gathered from unrelated publications.
# A part holds a random share of what one study measured. Positions count from the first letter of the parent shown.

# Study 1
# Target: Hepatocyte nuclear factor 3-alpha (Foxa1, Mus musculus, UniProt P35582, residues 1-468, full length assumed)
# Technique: EMSA with sequencing
# Form: double-stranded DNA, one strand shown
# Sample: in vitro
# Tested at: 10 and 20 nM
# Notes: whole designed probe, mean of two concentrations, ends assumed
# Relative to: negative control set to 0
# Direction: higher = stronger binding
# Shared flanks, not repeated: GTGAGCGGTGCCCATTGATGGGGAAC … TTTCACTGGGATCGTGGGGAC
# Construct (chain): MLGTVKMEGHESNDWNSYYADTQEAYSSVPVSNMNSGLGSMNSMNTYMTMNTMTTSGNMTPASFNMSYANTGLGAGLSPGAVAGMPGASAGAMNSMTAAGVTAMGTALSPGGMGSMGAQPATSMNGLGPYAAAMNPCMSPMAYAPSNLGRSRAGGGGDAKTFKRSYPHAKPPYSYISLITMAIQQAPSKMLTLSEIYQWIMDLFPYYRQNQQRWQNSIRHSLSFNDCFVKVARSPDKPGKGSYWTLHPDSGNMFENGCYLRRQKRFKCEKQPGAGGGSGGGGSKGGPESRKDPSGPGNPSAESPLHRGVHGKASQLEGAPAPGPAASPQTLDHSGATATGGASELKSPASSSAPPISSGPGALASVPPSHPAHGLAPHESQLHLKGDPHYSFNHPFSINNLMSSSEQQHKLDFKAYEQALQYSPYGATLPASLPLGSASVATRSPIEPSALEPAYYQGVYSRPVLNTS
Sequence,normalised bound fraction
TGCCATGGGCCTTCATTTCCAGGCTTCCAGGCTCACCAGCTCAGGAAGAGGATTTTGCTAAGCAGTGGATATATACACAAAGGCAGGGCCAATGCAATTTAGAAATTCCTGGTCCACAAATAAACATTTCTTAAGCAACCCACACAATGAAATGGATGATAGCGTTTTCTACCCGAACTTTTCTCTAATTACA,0.134 ratio
TTTCCAGCCCTTAGTTTCTGGCATTTAACCTGACTCTGGTCCCTGAATGGCATGGGAGTGCTTTCAACCACAGGTTTCCACATTCATGCCACTTGTTTGCTTTTCTGTCACATTCTGATCTACAGAGATCTTTATTTGCTTTGTGTTTCCAATGGAGAAAGAGCTTGGGAAGGGAGGATCCTAATTGTCTAAA,0.497 ratio
TTAAGAAAAGTTGAAACAGGAATTGCTTGATAATCTTGAAAATATGCATGTATGTATGTTTGTTTAATGACTAAATGTATACTATTTGAGAAAGTAATTTAGGAGGGTAGGGGGCAGAAGCCAGATTCAGATTTTTGTGTGATGAAGAATGAATAAATGAATGTTTAGGAGTTGAGGAAATGGAAGAAGTGTT,0.452 ratio
GTTCCACTCACAGCTTGACAAGTGAACTCTTTGTCAATGACAAGGCAAAGGTTAATGATTAACAGGCACTGTATTTACCAACTTAGGAACTAAATAATCTGAATCCAGACAGGATACCATTAAGAGTTGCAGCATCACCAAAAATATCTGGCTGATTGACTGAATGTCGTCGCTTTTCTTTTTCTTTTTTTGA,0.0675 ratio
TTAACTTAGGTAATTGAATATTTAATTTATTGATATTCTTAAAATGTTTCTTTCCAAACAGACTACTTTTTTTCAGTTTGATCTTCTTTCAAATGTAATCTTGCAGTTTTTTTGTTTCTGAATTTTTATATTAATTGCAGTTTATTAATCAATATTGATAAGCATTTCATGGGTATCAAGACCATTTGATTTG,0.0979 ratio
CAAGTTTGTGGTCCAGGAGCAACAGGTTATGCCATACAGCCTAGGTGTGTAGTAGGCTCCATGACTCATATGTTTGTGTTGTACACTCTACAATGTTTGCACAATGATGAAATCCCATGTCACATTTCTCAGAACATACCCCTGTTGTTAAGCGATACATGACTGTACTTTTTTTAAAAAGTCCAAGGATATA,0.444 ratio
AGGTATTTTGCTGCCACACTGATAGTTCAGTGAATTGCACTTTTGGATCTTGGAGAATGGAGAGAAGCAGCTAGGCAAATAATTGGCAAGAAAAGTAAACAGTTACAGTGCAGCTTTGTTTACCCACTCTGCCTATCTGCGTTTCTGAAATTGGATTCCTTGGCTCTGTGAACTAGTTAGCCTTCCTTTAGAG,0.493 ratio
CATCCCAGTTTTAATAGTGTCCAGCAGTTTCTTTAAGCATACATTTCTCATCTCCTCCTTGAAATAAAATTTTAGAAATGGATCTTGAGAACCCTGTTTACTTTGTCCGAAAAAAAAAAAAATCCCTTCACAACACTAAGAAACTTAAAGCACTTTCATAAATAGGGAAACAGCATCTTTTAATGTTTTATTG,0.237 ratio

# Study 2
# Partner: ARF13 (Arabidopsis thaliana, UniProt Q9FX25)
# Technique: two-hybrid
# Relative to: out of 4 tests
# Direction: higher = firmer interaction
# B1: ARF8 699-811 (Arabidopsis thaliana, UniProt Q9FGV1); chain NSSNQTKNFVKVYKSGSVGRSLDISRFSSYHELREELGKMFAIEGLLEDPLRSGWQLVFVDKENDILLLGDDPWESFVNNVWYIKILSPEDVHQMGDHGEGSGGLFPQNPTHL
# B2: ARF5 788-902 (Arabidopsis thaliana, UniProt P93024); chain ATPRVRTYTKVQKTGSVGRSIDVTSFKDYEELKSAIECMFGLEGLLTHPQSSGWKLVYVDYESDVLLVGDDPWEEFVGCVRCIRILSPTEVQQMSEEGMKLLNSAGINDLKTSVS
# B3: IAA32 (Arabidopsis thaliana, UniProt Q8RYC6); chain MDPNTPADFFKGSSKFHTYYSQTKKGGGVIDLGLSLRTIQHETYLPPARMIGLDGYGELIDWSQPSYNSITQLKSEDTGHQRLAQGYYNNEGESRGKYAYVKVNLDGLVVGRKVCLVDQGAYATLALQLNDMFGMQTVSGLRLFQTESEFSLVYRDREGIWRNVGDVPWKEFVESVDRMRIARRNDALLPF
# B4: IAA18 (Arabidopsis thaliana, UniProt O24408); chain MEGYSRNGEISPKLLDLMIPQERRNWFHDEKNSVFKTEEKKLELKLGPPGEEDDDESMIRHMKKEPKDKSILSLAGKYFSPSSTKTTSHKRTAPGPVVGWPPVRSFRKNLASGSSSKLGNDSTTSNGVTLKNQKCDAAAKTTEPKRQGGMFVKINMYGVPIGRKVDLSAHNSYEQLSFTVDKLFRGLLAAQRDFPSSIEDEKPITGLLDGNGEYTLTYEDNEGDKMLVGDVPWQMFVSSVKRLRVIKTSEISSALTYGNGKQEKMRR
# B5: ARF2 727-859 (Arabidopsis thaliana, UniProt Q94JM3); chain TKTNSSRSCTKVHKQGIALGRSVDLSKFQNYEELVAELDRLFEFNGELMAPKKDWLIVYTDEENDMMLVGDDPWQEFCCMVRKIFIYTKEEVRKMNPGTLSCRSEEEAVVGEGSDAKDAKSASNPSLSSAGNS
# B6: IAA26 (Arabidopsis thaliana, UniProt Q8LAL2); chain MEGCPRNREIGPKLLDLIPQGRKWYQEDKNNTDQEKKLELRLGPPGGDEEDHSAIKKKNTEIRNIKKETEDKSFHCFNGNHFSPSNKTTSVPHISQKRTAPGPVVGWPPVRSFRKNLASTSSSKLGNESSHGGQINKSDDGEKQVETKKEGMFVKINMDGVPIGRKVDLNAYNSYEQLSFVVDKLFRGLLAAQRDISDGQGEEKPIIGLLDGKGEFTLTYEDNEGDKMLVGDVPWQMFVSSVKRLRVIKSSEISSALTFGCSKQEKMMH
# B7: ARF4 660-788 (Arabidopsis thaliana, UniProt Q9ZTX9); chain QSSSKRICTKVHKQGSQVGRAIDLSRLNGYDDLLMELERLFNMEGLLRDPEKGWRILYTDSENDMMVVGDDPWHDFCNVVWKIHLYTKEEVENANDDNKSCLEQAALMMEASKSSSVSQPDSSPTITRV
# B8: ARF7 1030-1164 (Arabidopsis thaliana, UniProt P93022); chain PAQTQRMRTYTKVQKRGSVGRSIDVNRYRGYDELRHDLARMFGIEGQLEDPQTSDWKLVYVDHENDILLVGDDPWEEFVNCVQSIKILSSAEVQQMSLDGNFAGVPVTNQACSGGDSGNAWRGHYDDNSATSFNR
# Construct (chain): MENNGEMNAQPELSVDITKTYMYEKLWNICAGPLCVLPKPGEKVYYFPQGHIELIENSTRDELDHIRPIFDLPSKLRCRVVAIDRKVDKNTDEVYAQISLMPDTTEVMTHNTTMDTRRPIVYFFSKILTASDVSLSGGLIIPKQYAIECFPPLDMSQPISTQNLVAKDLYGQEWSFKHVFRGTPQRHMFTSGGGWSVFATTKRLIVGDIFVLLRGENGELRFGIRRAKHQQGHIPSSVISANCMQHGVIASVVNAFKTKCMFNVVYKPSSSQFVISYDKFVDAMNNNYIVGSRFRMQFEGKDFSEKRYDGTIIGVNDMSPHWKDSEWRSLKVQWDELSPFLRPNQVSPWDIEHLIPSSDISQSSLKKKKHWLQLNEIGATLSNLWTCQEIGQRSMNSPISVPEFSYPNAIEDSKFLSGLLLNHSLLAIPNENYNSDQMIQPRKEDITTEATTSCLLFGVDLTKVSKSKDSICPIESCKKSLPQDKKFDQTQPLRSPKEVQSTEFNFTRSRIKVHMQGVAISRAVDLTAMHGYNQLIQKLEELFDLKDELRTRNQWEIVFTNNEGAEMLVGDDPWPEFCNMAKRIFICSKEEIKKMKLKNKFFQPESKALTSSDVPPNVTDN
Molecule,positive tests
B1 (ARF8 699-811),0
B2 (ARF5 788-902),0
B3 (IAA32),1
B4 (IAA18),0
B5 (ARF2 727-859),0
B6 (IAA26),0
B7 (ARF4 660-788),0
B8 (ARF7 1030-1164),0

# Study 3
# Substitution: H34A
# Target: ABI1, truncated, D143A, DHFR fusion (Arabidopsis thaliana)
# Technique: DHFR PCA, deep sequencing
# Sample: yeast
# Notes: methotrexate growth selection, single substitutions
# Relative to: wild-type fitted maximum
# Direction: higher = stronger binding
# Parent: PYL1, truncated, DHFR fusion (Arabidopsis thaliana); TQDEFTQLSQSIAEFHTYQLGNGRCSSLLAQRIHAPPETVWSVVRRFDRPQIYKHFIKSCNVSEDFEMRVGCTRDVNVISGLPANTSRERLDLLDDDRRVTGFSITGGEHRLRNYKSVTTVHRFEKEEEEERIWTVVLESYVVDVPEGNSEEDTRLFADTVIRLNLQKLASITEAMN; partner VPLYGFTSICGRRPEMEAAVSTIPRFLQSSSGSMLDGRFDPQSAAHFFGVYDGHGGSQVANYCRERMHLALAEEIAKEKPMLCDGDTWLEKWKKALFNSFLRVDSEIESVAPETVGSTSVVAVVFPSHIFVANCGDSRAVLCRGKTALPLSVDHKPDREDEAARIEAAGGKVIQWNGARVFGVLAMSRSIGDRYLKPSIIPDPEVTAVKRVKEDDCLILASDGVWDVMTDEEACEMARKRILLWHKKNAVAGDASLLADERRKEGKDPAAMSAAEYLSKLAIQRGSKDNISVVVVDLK
added,relative binding score [%]
(+)-ABA 58 µM,87
(+)-ABA 200 µM,97.4
(+)-ABA 0.032 µM,52.7
(+)-ABA 0.39 µM,52.3
(+)-ABA 17 µM,86.8
(+)-ABA 0.11 µM,42.3

# Single results of other studies
# Parent: viral docking peptide; KGVKRKLFAEDSS
Substitution,target,test,test system,setting,scale,measurement,value
S12Q,"CCNE1, cyclin fold, Cln2 fusion (human)","yeast growth competition, sequencing",yeast,strong parent motif,"relative to: not given, higher = stronger binding",normalised enrichment score,6.75

# Excerpt of the above (study 3):
added,relative binding score [%]
(+)-ABA 0.39 µM,52.3
(+)-ABA 17 µM,86.8
